{"data": "Measured values of several laboratories", "UCHL1": "Ubiquitin carboxyl-terminal hydrolase isozyme L1 (UCHL1, Homo sapiens, UniProt P09936)", "note": "“And” joins repeats or separate records; there may be more than shown. ± marks the error that the study gave.", "chain of UniProt P09936 (whole entry, looked up)": "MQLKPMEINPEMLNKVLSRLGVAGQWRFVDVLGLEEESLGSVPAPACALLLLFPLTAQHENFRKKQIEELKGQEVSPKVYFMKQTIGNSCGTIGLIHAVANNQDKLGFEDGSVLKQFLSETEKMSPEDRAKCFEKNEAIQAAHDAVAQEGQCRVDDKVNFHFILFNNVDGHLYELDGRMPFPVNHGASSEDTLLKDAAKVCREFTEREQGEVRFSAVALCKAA", "chain of UniProt Q07794 (whole entry, looked up)": "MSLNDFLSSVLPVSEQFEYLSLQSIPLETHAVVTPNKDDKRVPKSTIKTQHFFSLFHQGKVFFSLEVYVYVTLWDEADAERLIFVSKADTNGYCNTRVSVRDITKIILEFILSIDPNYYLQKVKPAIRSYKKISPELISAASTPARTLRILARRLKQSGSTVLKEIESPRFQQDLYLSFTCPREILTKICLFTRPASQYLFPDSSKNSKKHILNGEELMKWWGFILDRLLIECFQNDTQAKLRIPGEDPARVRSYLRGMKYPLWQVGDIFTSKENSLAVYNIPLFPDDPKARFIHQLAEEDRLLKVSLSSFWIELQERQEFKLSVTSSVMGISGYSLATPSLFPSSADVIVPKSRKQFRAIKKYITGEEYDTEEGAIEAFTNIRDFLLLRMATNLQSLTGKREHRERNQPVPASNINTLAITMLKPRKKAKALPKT"}
{"Structure (SMILES)": "Cc1ccc(NC(=O)[C@H]2CCCN(C(=O)c3c(C)cccc3F)[C@H]2c2ccc(NC3CCCC3)cc2)cc1C(F)(F)F", "tested on": "human peripheral blood neutrophils", "test": "flow cytometry FSC/SSC", "conditions": "0.1 µM, together with: TNF-α 5 ng/mL, MPO-ANCA immune complex", "how to read": "baseline: unstimulated neutrophils", "endpoint": "neutrophil swelling", "value": "2.74 fold change and 2.96 fold change and 3.99 fold change and 2.69 fold change"}
{"Structure (SMILES)": "CC1(C)CCC(CN2CCN(c3ccc(C(=O)NS(=O)(=O)c4ccc(NCC5CCOCC5)c([N+](=O)[O-])c4)c(Oc4cnc5[nH]ccc5c4)c3)CC2)=C(c2ccc(Cl)cc2)C1", "tested on": "THP-1", "test": "annexin V/PI flow cytometry, item: annexin V+/PI+", "conditions": "1.6 µM, 24 h", "endpoint": "late apoptotic cells", "value": "1.8%"}
{"Structure (SMILES)": "Cn1cc(-n2cnc3c(NCc4nc5cc(Cl)c(Cl)cc5[nH]4)nc(N4CCOCC4)nc32)cn1", "tested on": "MDA-MB-468", "test": "cell viability, CellCounting-Lite", "conditions": "24.69 nM, 37 °C", "how to read": "higher = more viable cells", "endpoint": "luminescence signal", "value": "149000 a.u. and 150000 a.u. and 148000 a.u."}
{"Structure (SMILES)": "C=CC1=C(C)c2cc3[n-]c(cc4nc(cc5[n-]c(cc1n2)c(C)c5C=C)C(C)=C4CCC(=O)O)c(CCC(=O)O)c3C.[Zn+2]", "tested on": "SH-SY5Y", "test": "RNA-seq, item: AOPEP mRNA", "conditions": "5 µM, 5 h", "how to read": "baseline: untreated cells", "endpoint": "fold change", "value": 1.95}
{"Structure (SMILES)": "O=C(Nc1nnc2[nH]c(=S)[nH]c(-c3ccc(Cl)cc3)c1-2)c1ccccc1", "tested on": "MDA-MB-231/ATCC", "test": "NCI60 SRB", "conditions": "10 µM", "endpoint": "growth percent", "value": "91.3%"}
{"Structure (SMILES)": "COc1ccc(NC(=O)c2c(Nc3ccccc3)sc(C(=O)NN=Cc3ccc(OC)c(O)c3)c2NC(C)=O)cc1", "tested on": "HepG2", "test": "flow cytometry", "conditions": "IC50, 24 h", "endpoint": "cells in Apoptosis", "value": "6.07 ± 0.42%"}
{"Structure (SMILES)": "COc1c(C)c(OC(C)=O)c(C)c(OC(C)=O)c1C(=O)/C=C/c1ccccc1", "tested on": "FaDu", "test": "SRB", "how to read": "baseline: normal over FaDu IC50", "endpoint": "selectivity index", "value": 0.81}
{"Structure (SMILES)": "Oc1ccc2c(c1)OC[C@]1(O)Cc3cc(O)c(O)cc3[C@H]21", "tested on": "Toxoplasma gondii", "test": "parasite growth", "system": "HFF, bradyzoite, alkaline-induced", "endpoint": "EC50", "value": "26.1 µM"}
{"Structure (SMILES)": "CCn1cc(-c2cc(Cn3ccnc3)cc3c2CCN([C@H](c2cc(OC)ccn2)C2CC2)C3=O)c(C(F)(F)F)n1", "tested on": "SNU1079", "test": "cell growth", "conditions": "120 h", "endpoint": "EC50", "value": "> 30 µM"}
{"Structure (SMILES)": "CC/C(=N\\NC(=O)NCc1cccc(O)c1)c1ccc(O)c(C)c1O", "tested on": "SK-OV-3", "test": "Western blot, item: LATS", "conditions": "1 µM, 1 h, 2D culture, unit not given", "how to read": "baseline: β-actin", "endpoint": "protein level", "value": "0.99 ± 0.41"}
{"Structure (SMILES)": "Cc1[nH]c2ccccc2c1CCNCc1ccc(/C=C/C(=O)NO)cc1", "tested on": "A2780/CP", "test": "annexin V/PI flow cytometry", "conditions": "concentration not given, 48 h", "how to read": "baseline: untreated", "endpoint": "early apoptotic cells", "value": "28.7 ± 2%"}
{"Structure (SMILES)": "CCCN1CCN(c2ccc3[nH]c(-c4ccc5[nH]c(-c6ccc(OCC)c(OCC)c6)nc5c4)nc3c2)CC1", "tested on": "Malme-3M", "test": "SRB", "conditions": "10 µM, 48 h", "endpoint": "growth percent", "value": "-82.4%"}
{"Structure (SMILES)": "O=[N+]([O-])c1ccc2c(c1)S(=O)(=O)C=C2", "tested on": "Toxoplasma gondii", "test": "parasite growth", "system": "HFF, bradyzoite, alkaline-induced", "endpoint": "EC50", "value": "5.36 µM"}
{"Structure (SMILES)": "CCn1cc(-c2cc(Cn3ccoc3=N)cc3c2CCN([C@@H](C)c2cc(OC)ccn2)C3=O)c(C(F)(F)F)n1", "tested on": "NCI-H1792", "test": "cell growth, inhibitor", "conditions": "120 h", "endpoint": "EC50", "value": "0.00871 µM"}
{"Structure (SMILES)": "C[C@H]1Oc2cc(cnc2N)-c2c(nn(C)c2C#N)CN(C)C(=O)c2ccc(F)cc21", "tested on": "Ba/F3 EML4-ALK v1", "test": "cell viability", "endpoint": "Emax", "value": "100%"}
{"Structure (SMILES)": "Fc1ccc(Nc2nc(-c3ccccc3F)no2)cc1", "tested on": "Histone acetyltransferase RTT109, with Vps75 (Saccharomyces cerevisiae, UniProt Q07794)", "test": "enzyme activity, inhibitor, HTS, CPM-based, dose response", "endpoint": "IC50", "value": "> 125 µM"}
{"Structure (SMILES)": "O=C(O)c1cccnc1Nc1cccc(C(F)(F)F)c1", "tested on": "MCF7", "test": "firefly luciferase reporter", "conditions": "25 µM, 6 h", "how to read": "baseline: vehicle", "endpoint": "TEAD reporter activity", "value": "104 ± 7.3%"}
{"Structure (SMILES)": "Cn1cc(Nc2nccc(-c3ccc4c(c3)CN(C3COC3)CC[C@H]4NC(=O)c3cn(C(C)(C)C)nn3)n2)cn1", "tested on": "human B cells", "conditions": "100 nM, 64 h, stimulation-downregulated genes, together with: CpG ODN2006", "endpoint": "number of upregulated genes", "value": 124}
{"Structure (SMILES)": "Cn1cc(-c2ccc(-c3cncc(Cl)c3N3CCC4(CCNC4=O)CC3)cc2)cn1", "tested on": "COLO 205", "test": "gene expression, microarray, item: HIST1H4H mRNA", "conditions": "concentration not given, 6 h", "how to read": "baseline: untreated cells", "endpoint": "log2 fold change", "value": -2.48}
{"Structure (SMILES)": "Nc1ncnc2nc(-c3ccc(N4CCOCC4)nc3)cc(-c3cccc(Br)c3)c12", "tested on": "activated T cells", "conditions": "concentration not given, together with: adenosine 100 µM", "how to read": "baseline: DMSO control", "endpoint": "T cell proliferation", "value": "93.2% and 95% and 96.9%"}
{"Structure (SMILES)": "Nc1cccc2c1C(=O)N(C1CCC(=O)NC1=O)C2=O (stereo not shown)", "tested on": "RPMI-8226", "test": "flow cytometry, item: CD197", "conditions": "concentration not given", "how to read": "baseline: comparator compound alone", "endpoint": "surface marker level", "value": "58.1%"}
{"Structure (SMILES)": "CCC1CCc2c(sc(N3C(=O)C4C5CCC(C5)C4C3=O)c2C(N)=O)C1 (stereo not shown)", "tested on": "UCHL1", "test": "covalent, intact protein LC-MS", "conditions": "12.5 µM", "endpoint": "labelling", "value": "23.5%"}
{"Structure (SMILES)": "CC(=O)c1nn(-c2ccc(Cl)cc2)/c(=N/N=C(\\C)c2ccc(NC(=O)c3ccc(Cl)cc3)cc2)s1", "tested on": "HepG2", "conditions": "10 µM", "endpoint": "toxicity", "value": "92.6%"}
{"Structure (SMILES)": "CN(C)C(=O)c1csc(C(=O)CCl)c1", "tested on": "UCHL1", "test": "covalent, intact protein LC-MS", "conditions": "12.5 µM", "endpoint": "labelling", "value": "16.3%"}
{"Structure (SMILES)": "OCc1ccc(Nc2ccc3c(Nc4cccc(C(F)(F)F)c4)ncnc3c2)cc1", "tested on": "MCF7", "conditions": "IC50, 24 h", "endpoint": "G2/M phase cells", "value": "28.6%"}
{"note": "For quick reference, copied from above:"}
{"Structure (SMILES)": "Nc1cccc2c1C(=O)N(C1CCC(=O)NC1=O)C2=O (stereo not shown)", "tested on": "RPMI-8226", "test": "flow cytometry, item: CD197", "conditions": "concentration not given", "how to read": "baseline: comparator compound alone", "endpoint": "surface marker level", "value": "58.1%"}
{"Structure (SMILES)": "CCC1CCc2c(sc(N3C(=O)C4C5CCC(C5)C4C3=O)c2C(N)=O)C1 (stereo not shown)", "tested on": "UCHL1", "test": "covalent, intact protein LC-MS", "conditions": "12.5 µM", "endpoint": "labelling", "value": "23.5%"}
